Experimental data pooled from the literature.
A part holds a random share of what one study measured. Several values in a cell are separate wells, animals, samples, runs or records.
Sequence of UniProt Q8N568 (whole entry, looked up): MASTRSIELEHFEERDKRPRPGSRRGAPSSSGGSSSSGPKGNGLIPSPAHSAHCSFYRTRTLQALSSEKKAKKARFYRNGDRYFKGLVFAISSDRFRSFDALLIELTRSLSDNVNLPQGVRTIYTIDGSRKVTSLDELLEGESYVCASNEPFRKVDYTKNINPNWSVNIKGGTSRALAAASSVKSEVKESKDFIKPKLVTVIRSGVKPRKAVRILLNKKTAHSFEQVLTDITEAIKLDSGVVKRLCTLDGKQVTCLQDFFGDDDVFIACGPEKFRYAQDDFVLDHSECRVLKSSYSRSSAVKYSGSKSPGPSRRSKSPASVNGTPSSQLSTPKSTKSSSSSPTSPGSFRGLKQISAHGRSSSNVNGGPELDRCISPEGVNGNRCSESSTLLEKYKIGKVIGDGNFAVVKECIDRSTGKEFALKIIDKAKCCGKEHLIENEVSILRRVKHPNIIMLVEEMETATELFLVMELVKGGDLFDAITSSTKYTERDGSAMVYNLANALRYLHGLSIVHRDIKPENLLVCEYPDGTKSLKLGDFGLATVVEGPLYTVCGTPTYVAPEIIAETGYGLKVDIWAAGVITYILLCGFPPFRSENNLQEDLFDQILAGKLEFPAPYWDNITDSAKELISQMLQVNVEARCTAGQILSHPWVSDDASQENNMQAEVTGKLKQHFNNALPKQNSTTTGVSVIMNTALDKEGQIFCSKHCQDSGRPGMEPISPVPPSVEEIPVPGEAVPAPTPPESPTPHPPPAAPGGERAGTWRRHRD
Sequence of UniProt P51812 (whole entry, looked up): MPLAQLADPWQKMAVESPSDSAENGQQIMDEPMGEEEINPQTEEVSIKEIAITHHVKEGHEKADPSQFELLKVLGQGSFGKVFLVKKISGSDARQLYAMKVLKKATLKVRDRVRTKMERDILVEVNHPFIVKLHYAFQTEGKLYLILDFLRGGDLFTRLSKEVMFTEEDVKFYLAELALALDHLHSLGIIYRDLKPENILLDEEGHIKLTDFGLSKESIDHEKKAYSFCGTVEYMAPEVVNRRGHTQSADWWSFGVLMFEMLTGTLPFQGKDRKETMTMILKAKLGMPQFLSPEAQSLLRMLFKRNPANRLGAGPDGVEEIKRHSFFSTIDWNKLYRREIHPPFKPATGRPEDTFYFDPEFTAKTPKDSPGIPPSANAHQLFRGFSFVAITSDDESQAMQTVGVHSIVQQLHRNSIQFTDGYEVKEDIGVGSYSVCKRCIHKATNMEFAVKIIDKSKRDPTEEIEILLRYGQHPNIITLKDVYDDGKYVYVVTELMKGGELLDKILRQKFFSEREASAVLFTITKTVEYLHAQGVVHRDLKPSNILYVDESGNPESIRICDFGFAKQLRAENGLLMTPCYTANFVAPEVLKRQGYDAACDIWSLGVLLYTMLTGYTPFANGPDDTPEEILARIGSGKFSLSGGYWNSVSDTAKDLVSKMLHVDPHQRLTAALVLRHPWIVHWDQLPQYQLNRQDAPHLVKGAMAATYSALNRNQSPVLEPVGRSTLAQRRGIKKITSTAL
Sequence of UniProt Q9HC98 (whole entry, looked up): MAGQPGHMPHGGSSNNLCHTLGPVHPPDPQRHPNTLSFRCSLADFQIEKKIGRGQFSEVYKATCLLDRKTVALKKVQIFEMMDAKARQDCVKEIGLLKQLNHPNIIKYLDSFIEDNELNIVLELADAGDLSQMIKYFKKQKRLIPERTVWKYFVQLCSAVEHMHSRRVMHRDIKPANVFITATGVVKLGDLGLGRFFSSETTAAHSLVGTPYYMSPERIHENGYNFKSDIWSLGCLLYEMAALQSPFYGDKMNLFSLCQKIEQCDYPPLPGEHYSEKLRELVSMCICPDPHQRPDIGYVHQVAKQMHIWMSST
Sequence of UniProt P35968 (whole entry, looked up): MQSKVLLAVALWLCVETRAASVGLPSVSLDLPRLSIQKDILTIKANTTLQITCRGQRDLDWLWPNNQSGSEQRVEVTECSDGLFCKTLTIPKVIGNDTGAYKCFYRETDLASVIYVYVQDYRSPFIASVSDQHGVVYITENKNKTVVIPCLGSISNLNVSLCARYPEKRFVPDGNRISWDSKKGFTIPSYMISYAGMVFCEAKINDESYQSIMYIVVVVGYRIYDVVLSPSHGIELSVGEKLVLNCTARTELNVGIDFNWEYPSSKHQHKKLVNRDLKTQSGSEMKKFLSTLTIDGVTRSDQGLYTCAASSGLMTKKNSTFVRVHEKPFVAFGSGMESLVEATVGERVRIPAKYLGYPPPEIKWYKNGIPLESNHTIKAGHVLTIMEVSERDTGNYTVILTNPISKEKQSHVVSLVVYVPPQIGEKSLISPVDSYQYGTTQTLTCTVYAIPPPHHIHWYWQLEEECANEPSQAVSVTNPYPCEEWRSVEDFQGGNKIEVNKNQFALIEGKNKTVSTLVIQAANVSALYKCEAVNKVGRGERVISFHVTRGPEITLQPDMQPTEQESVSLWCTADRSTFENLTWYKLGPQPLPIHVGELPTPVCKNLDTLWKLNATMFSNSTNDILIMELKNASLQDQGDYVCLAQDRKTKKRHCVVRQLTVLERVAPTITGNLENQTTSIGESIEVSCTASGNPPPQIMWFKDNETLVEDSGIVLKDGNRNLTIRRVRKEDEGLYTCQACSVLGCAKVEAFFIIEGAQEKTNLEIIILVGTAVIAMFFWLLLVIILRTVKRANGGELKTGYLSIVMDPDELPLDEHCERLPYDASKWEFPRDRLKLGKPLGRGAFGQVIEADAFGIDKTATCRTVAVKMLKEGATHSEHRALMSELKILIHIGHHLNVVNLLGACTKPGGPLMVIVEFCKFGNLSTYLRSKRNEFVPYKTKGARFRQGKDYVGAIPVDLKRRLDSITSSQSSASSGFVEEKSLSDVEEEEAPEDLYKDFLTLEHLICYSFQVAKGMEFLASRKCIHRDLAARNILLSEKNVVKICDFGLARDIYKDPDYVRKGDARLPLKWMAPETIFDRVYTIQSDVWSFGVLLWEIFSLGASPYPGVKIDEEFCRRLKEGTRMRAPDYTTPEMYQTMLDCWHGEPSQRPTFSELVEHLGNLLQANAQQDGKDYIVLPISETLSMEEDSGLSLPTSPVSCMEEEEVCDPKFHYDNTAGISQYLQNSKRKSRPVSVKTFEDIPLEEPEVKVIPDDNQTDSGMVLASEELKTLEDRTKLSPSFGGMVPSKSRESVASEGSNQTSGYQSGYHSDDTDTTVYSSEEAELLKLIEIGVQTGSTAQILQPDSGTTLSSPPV
Sequence of UniProt P07949 (whole entry, unmodified, looked up): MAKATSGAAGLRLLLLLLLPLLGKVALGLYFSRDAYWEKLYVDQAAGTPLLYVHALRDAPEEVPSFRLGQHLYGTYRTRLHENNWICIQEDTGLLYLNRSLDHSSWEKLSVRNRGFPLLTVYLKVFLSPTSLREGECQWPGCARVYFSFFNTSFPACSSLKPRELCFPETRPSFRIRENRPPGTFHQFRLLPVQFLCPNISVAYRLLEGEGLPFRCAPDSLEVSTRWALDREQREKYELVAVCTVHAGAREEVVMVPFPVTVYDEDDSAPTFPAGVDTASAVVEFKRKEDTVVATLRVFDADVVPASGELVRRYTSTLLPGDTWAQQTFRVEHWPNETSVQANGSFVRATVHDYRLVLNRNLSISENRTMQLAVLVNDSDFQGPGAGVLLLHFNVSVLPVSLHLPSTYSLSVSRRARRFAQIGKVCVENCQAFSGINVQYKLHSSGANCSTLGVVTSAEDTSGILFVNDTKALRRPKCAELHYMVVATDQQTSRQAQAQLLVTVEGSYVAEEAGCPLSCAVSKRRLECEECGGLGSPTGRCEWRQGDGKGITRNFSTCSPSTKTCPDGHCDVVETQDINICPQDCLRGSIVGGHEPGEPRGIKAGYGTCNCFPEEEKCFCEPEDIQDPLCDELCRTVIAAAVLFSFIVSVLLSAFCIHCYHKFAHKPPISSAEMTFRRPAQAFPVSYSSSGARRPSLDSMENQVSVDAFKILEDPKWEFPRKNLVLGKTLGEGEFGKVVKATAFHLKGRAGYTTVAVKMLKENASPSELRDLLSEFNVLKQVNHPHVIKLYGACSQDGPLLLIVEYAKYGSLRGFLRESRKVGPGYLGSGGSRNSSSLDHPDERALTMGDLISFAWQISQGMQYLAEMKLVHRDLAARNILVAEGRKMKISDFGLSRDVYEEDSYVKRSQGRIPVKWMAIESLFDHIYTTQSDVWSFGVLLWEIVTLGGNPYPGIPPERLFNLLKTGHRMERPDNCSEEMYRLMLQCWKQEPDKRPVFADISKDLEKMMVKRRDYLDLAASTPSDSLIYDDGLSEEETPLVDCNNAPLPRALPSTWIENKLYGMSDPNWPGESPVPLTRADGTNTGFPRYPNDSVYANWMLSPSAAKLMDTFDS
Sequence of UniProt Q16566 (whole entry, looked up): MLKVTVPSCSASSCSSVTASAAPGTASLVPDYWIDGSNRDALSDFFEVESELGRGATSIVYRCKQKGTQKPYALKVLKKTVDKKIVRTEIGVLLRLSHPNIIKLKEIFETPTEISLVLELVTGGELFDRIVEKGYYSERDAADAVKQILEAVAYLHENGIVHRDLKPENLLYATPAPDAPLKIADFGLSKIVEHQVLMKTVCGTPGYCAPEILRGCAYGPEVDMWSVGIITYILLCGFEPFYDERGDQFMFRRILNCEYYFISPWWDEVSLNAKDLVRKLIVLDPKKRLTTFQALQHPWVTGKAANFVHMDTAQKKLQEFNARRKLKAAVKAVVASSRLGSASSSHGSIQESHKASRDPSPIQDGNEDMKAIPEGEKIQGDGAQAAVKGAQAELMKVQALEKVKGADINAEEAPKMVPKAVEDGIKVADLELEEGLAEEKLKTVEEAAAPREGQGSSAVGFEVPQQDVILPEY

Study 1 — effect on: enzyme activity; action: inhibitor; concentration: 0.5 µM; relative to: control; measurement: remaining activity
Target: Ephrin type-B receptor 3 (EPHB3, Homo sapiens, UniProt P54753)
Construct (P54753 1-998): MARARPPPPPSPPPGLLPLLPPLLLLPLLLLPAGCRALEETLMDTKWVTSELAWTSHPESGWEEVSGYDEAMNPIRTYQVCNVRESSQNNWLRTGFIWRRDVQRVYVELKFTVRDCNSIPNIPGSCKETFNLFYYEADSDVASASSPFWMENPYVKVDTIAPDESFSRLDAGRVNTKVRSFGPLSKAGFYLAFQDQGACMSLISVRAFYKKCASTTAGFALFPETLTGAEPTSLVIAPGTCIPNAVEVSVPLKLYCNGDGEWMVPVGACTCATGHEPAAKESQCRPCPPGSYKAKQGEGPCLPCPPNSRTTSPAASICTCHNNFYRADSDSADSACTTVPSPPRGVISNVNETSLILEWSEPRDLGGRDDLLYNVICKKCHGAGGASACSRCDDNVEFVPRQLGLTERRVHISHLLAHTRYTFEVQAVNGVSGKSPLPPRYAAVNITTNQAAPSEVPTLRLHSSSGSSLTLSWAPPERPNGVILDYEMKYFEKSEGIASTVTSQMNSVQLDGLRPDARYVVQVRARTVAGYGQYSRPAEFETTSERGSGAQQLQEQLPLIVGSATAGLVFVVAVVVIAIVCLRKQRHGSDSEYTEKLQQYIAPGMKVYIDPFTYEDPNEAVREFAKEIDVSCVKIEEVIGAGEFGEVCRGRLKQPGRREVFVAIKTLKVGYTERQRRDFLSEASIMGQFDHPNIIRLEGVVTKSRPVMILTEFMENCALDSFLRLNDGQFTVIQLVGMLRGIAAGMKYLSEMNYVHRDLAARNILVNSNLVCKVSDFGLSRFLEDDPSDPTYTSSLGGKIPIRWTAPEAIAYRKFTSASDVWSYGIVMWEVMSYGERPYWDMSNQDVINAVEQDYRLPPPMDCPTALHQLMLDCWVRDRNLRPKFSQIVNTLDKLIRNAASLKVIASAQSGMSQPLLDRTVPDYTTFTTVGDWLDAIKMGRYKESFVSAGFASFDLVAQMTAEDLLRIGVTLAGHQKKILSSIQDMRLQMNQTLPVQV
CC(C)(C)n1nc(Cc2cccc3ccccc23)c2c(N)ncnc21: 45.2%
N#CC(=C(N)Sc1ccc(N)cc1)c1ccccc1C(F)(F)F: 96.7%
O=C1Cc2c([nH]c3ccc([N+](=O)[O-])cc23)-c2ccccc2N1: 103%
Nc1ncnc2c1cnn2-c1ccccc1: 93.5%
NC(=O)c1ccc(N(C(N)=O)c2c(F)cccc2F)nc1-c1ccc(F)cc1F: 65.8%
CCCC(=O)Oc1ccc2[nH]c(C(=O)c3cc4ccccc4[nH]3)cc2c1: 94.2%
CC[n+]1c(/C=C/N(C)c2ccccc2)n(-c2ccccc2)c2ccc(-c3nc4ccccc4s3)cc21: 102%
COc1cc(Nc2c(C#N)cnc3cc(OCCCN4CCN(C)CC4)c(OC)cc23)c(Cl)cc1Cl: 49.4%
Fc1ccc(-c2nc3n(c2-c2ccncc2)CCS3)cc1: 96.1%
CCc1[nH]c(-c2ccc(OC)cc2)nc1-c1ccncc1: 107%
CC(=O)c1ccc(N2CCOCC2)cc1O: 92.3%
COc1ccc(S(=O)(=O)N(CCO)c2ccccc2CN(C)CC=Cc2ccc(Cl)cc2)cc1: 92.8%
CSc1nc(-c2ccnc(N[C@@H](C)c3ccccc3)c2)c(-c2ccc(F)cc2)[nH]1 (racemic): 94%
Cc1cncc2cccc(S(=O)(=O)N3CCCN(C(=O)CN)C[C@@H]3C)c12: 99.6%
O=C1NC(=O)C(c2c[nH]c3ccccc23)=C1c1c[nH]c2ccccc12: 94.3%
CC#CC(=O)Nc1cc2c(Nc3ccc(F)c(Cl)c3)ncnc2cn1: 85.4%
Nc1nc(Nc2ccc(S(N)(=O)=O)cc2)nn1C(=O)c1c(F)cccc1F: 98.5%

Study 2 — relative to: DMSO; measurement: cell growth
Compound: Cc1cc2c(C(N)=O)c(N)n(-c3c(C)ccc(O)c3C)c2nc1C
NCI-H1048; MTT; 41.1 nM, 5 d: 91.7% and 85.4%
NCI-H446; Vi-Cell counting; 4.57 nM, 5 days: 96.9% and 107%
NCI-H69; MTT; 41.1 nM, 5 d: 107% and 91.4%
NCI-H446; Vi-Cell counting; 124 nM, 5 days: 97.7% and 83.7%
NCI-H446; Vi-Cell counting; 371 nM, 5 days: 90.9% and 91.4%
NCI-H69; MTT; 1.11 µM, 5 d: 97.2% and 96.6%
NCI-H446; Vi-Cell counting; 13.7 nM, 5 days: 99.6% and 101%
NCI-H69; MTT; 4.57 nM, 5 d: 104% and 114%

Study 3 — cell line: A-375; concentration: 100 µM; time: 36 h; measurement: viability
CC1=C(/C=C/C(C)=C/C=C/C(C)=C/C(=O)O)C(C)(C)CCC1: 36%
CC(=O)N(CC(O)CO)c1c(I)c(C(=O)NCC(O)CO)c(I)c(C(=O)NCC(O)CO)c1I (mixture of isomers): 111%
CCCc1cc(C(N)=S)ccn1: 104%
Nc1ccn([C@@H]2O[C@H](CO)[C@@H](O)C2(F)F)c(=O)n1: 23.3%
C[C@H](CCC(=O)NCCS(=O)(=O)O)[C@H]1CC[C@H]2[C@@H]3[C@@H](O)C[C@@H]4C[C@H](O)CC[C@]4(C)[C@H]3CC[C@]12C: 113%

Study 4 — effect on: cell-free assay; method: competition with immobilised ligand; concentration: 1 µM; measurement: remaining binding
Compound: O=C1CCc2cc(Nc3cc(OC4CCOCC4)c([N+](=O)[O-])cc3Cl)ccc2N1
Ribosomal protein S6 kinase alpha-3, C-terminal kinase domain (RPS6KA3, Homo sapiens, UniProt P51812): 100%
NEK6 (Homo sapiens, UniProt Q9HC98): 96%
CAMK1 (Homo sapiens, UniProt Q14012): 93%
ABL2 (Homo sapiens, UniProt P42684): 79%
PIP4K2B (Homo sapiens, UniProt P78356): 100%
FLT3 (Homo sapiens, UniProt P36888, K663Q): 100%
RET (Homo sapiens, UniProt P07949, M918T): 94%
TNNI3K (Homo sapiens, UniProt Q59H18): 60%
LYN (Homo sapiens, UniProt P07948): 93%
DCLK2 (Homo sapiens, UniProt Q8N568): 100%
NEK4 (Homo sapiens, UniProt P51957): 100%
RIPK4 (Homo sapiens, UniProt P57078): 100%
KDR (Homo sapiens, UniProt P35968): 100%
EGFR (Homo sapiens, UniProt P00533, A750P/del747-749): 92%
FER (Homo sapiens, UniProt P16591): 100%
CDK14 (Homo sapiens, UniProt O94921): 100%
CAMK4 (Homo sapiens, UniProt Q16566): 100%

Repeated from above (study 4):
LYN (Homo sapiens, UniProt P07948): 93%
DCLK2 (Homo sapiens, UniProt Q8N568): 100%
NEK4 (Homo sapiens, UniProt P51957): 100%
RIPK4 (Homo sapiens, UniProt P57078): 100%
